Measured values from different studies.
A part holds a random share of what one study measured. “And” joins repeats or separate records; there may be more than shown.
Chain of UniProt Q8CE90 (whole entry, looked up): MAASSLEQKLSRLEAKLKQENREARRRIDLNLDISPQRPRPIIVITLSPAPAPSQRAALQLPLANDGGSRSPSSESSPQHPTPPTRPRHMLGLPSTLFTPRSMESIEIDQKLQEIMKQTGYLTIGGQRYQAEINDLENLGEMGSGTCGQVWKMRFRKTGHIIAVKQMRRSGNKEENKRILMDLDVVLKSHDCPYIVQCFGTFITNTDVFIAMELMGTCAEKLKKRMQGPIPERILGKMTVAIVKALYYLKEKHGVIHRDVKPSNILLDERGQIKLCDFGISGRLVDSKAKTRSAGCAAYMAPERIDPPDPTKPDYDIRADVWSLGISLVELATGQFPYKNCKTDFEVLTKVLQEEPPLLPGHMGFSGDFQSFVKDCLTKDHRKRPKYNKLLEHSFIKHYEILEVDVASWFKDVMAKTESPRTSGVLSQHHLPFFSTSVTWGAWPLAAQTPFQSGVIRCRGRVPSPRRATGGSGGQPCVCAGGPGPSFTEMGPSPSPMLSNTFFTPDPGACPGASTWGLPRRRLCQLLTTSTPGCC

Block 1
SMILES: COc1cc(C(=O)N2CCC(N3CCN(C)CC3)CC2)ccc1Nc1ncc2c(n1)N(C)c1ccccc1C(=O)N2C
Quantity: inhibition
PHKg2 (mouse); probe labelling, KiNativ, refers to: Lys1 site peptide; brain tissue lysate (mouse); 1 µM, together with: ATP acyl-phosphate probe: 13.5%
CDK5 (mouse); probe labelling, KiNativ ATP probe; mouse brain lysate; 0.1 µM, LYS2 labelled site: -1.6%
PIP4K2A and PIP4K2B human; KiNativ profiling; human PBMC; 1 µM, ATP site, together with: ATP acyl phosphate probe: -4.2% and -5.4%
MYLK; KiNativ ATP probe; human PBMC lysate; 0.1 µM, ATP loop site: -6%
SYK human; KiNativ profiling; human PBMC; 1 µM, DFG motif site, together with: ATP acyl phosphate probe: -1%
human PBMC; probe labeling, inhibitor, KiNativ profiling, refers to: DIkTLNIFLTK; cell lysate; 1 µM, LYS2 site, together with: ATP acyl-phosphate probe: 3.3%
Dual specificity mitogen-activated protein kinase kinase 7 (Map2k7, Mus musculus, UniProt Q8CE90); probe labelling, KiNativ, refers to: DVkPSNILLDER peptide, Lys2 site; brain tissue lysate (mouse); 1 µM, together with: ATP acyl-phosphate probe: -9.8%
MAP3K3 (human); probe labelling, KiNativ ATP probe; human PBMC lysate; concentration not given, LYS1 labelled site: -11.4%
human PBMC; probe labeling, inhibitor, KiNativ profiling, refers to: DLkPQNLLINR; cell lysate; 1 µM, LYS2 site, together with: ATP acyl-phosphate probe: -6.1%

Block 2
Target: Beta-1 adrenergic receptor (ADRB1, Homo sapiens, UniProt P08588)
Chain of UniProt P08588 (whole entry, looked up): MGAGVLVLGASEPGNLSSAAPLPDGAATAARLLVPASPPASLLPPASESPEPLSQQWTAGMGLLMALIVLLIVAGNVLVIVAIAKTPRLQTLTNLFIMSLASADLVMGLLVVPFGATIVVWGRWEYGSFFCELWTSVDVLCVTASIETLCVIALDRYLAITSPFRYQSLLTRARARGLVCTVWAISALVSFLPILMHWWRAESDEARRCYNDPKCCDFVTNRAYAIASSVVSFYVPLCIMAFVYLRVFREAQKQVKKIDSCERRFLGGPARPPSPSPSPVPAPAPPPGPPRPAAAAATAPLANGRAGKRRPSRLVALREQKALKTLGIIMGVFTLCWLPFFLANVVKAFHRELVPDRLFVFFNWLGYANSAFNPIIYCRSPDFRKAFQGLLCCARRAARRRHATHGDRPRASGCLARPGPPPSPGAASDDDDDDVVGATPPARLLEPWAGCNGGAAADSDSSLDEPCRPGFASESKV
Action: antagonist
Quantity: IC50
COc1ccc2c(CSc3nnnn3-c3ccccc3)cc(=O)oc2c1: ≥ 100 µM
O=c1ncn(CCC(F)(F)F)c2ccc(-c3ccccc3)nc12: ≥ 100 µM
COc1ccc(-c2ccc3ccccc3n2)c(OC)c1OC: ≥ 100 µM
O=C(COc1ccccc1)Nc1ccc([C@@H](O)[C@H]2COCC(=O)N2)cc1: ≥ 100 µM
O=C(c1cc(-c2ccc(F)cc2)nc2ccccc12)N1CCCC1c1nc(C2CCOCC2)no1 (centres unmarked): ≥ 100 µM
COCCNC[C@@H]1C=C(C)[C@H](Cc2nnc(-c3ccc(N(C)C)cc3)o2)C[C@H]1C(C)C: ≥ 100 µM
Cc1oc(C(O)c2ccccc2)nc1C(=O)NCCN1CCOCC1 (centres unmarked): ≥ 100 µM
Cc1nc(Cn2nc(-c3ccccc3)ccc2=O)nc2ccccc12: ≥ 100 µM
Cc1noc2c(N3CCOCC3)cc(-c3cccs3)nc12: ≥ 100 µM
COc1ccccc1-c1nnc(SCc2cc(=O)oc3cc(O)ccc23)n1C: ≥ 100 µM
COc1ccccc1N1CCN([C@H]2[C@@H]3OC[C@@H](O3)[C@@H](N(CC3CC3)CC3CC3)[C@@H]2O)CC1: ≥ 100 µM

Block 3
Target: SRSF protein kinase 2 (SRPK2, Homo sapiens, UniProt P78362)
Chain of UniProt P78362 (whole entry, looked up): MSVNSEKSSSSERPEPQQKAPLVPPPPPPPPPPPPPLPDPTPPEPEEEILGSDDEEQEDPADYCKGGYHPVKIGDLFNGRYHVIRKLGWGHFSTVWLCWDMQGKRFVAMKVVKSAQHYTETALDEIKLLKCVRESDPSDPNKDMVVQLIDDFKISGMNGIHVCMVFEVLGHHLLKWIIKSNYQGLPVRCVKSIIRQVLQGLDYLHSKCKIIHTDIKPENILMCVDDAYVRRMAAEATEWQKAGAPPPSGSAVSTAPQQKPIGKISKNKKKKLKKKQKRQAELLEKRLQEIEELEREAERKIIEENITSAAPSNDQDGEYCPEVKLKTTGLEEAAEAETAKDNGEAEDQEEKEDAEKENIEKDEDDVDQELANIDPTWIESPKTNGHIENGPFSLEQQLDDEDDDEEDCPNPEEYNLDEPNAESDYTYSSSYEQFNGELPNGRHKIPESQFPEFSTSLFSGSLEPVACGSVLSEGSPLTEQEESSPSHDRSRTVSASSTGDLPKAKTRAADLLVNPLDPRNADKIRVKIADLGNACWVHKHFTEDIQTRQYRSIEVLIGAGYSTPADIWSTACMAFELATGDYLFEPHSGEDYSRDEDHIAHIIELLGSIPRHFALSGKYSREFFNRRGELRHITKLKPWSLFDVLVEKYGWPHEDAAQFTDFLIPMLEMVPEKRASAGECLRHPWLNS
Read-out: enzyme activity
Action: inhibitor
Concentration: 0.5 µM
Baseline: control
Quantity: remaining activity
O=S(=O)(NCCNC/C=C/c1ccc(Br)cc1)c1cccc2cnccc12: 88.3%
O=C1Cc2c([nH]c3ccc([N+](=O)[O-])cc23)-c2ccccc2N1: 109%
COc1cc(Nc2c(C#N)cnc3cc(OCCCN4CCN(C)CC4)c(OC)cc23)c(Cl)cc1Cl: 101%
O=C1NC(=O)C(c2c[nH]c3ccccc23)=C1c1c[nH]c2ccccc12: 84.3%
Nc1nc(Nc2ccc(S(N)(=O)=O)cc2)nn1C(=O)c1c(F)cccc1F: 54.9%
CC(=O)c1ccc(N2CCOCC2)cc1O: 98.6%
CCCC(=O)Oc1ccc2[nH]c(C(=O)c3cc4ccccc4[nH]3)cc2c1: 89.4%
CSc1nc(-c2ccnc(N[C@@H](C)c3ccccc3)c2)c(-c2ccc(F)cc2)[nH]1 (racemic): 94.4%
Cc1cc(Nc2nc(-c3ccccc3)nc3ccccc23)n[nH]1: 68.8%
Cc1ccc(NC2=CC(=O)c3sc(C)nc3C2=O)cc1: 101%
COc1ccc(S(=O)(=O)N(CCO)c2ccccc2CN(C)CC=Cc2ccc(Cl)cc2)cc1: 98.5%

Mixed results
Cn1cncc1[C@@](O)(COc1ccc(C#N)cc1-c1ccc(OC(F)(F)F)cc1)c1ccc(C#N)cc1
total cell count (HEK293T; high-content imaging; 10 µM, 24 h): 789
